Measured values from different studies.
Lines come from different studies, so protocols differ. “And” joins repeats or separate records; there may be more than shown. ± marks the error that the study gave.

| Structure (SMILES) | target or system | test | test system | conditions | how to read | quantity | result |
| --- | --- | --- | --- | --- | --- | --- | --- |
| COc1c(O)c(C)cc2c1C(=O)c1c(cc(O)c(O)c1O)C2=O | HK-2 co-cultured with HepaRG | MTT |  | 133.33 µM, 48 h | reference: untreated control | viability | 73 ± 5.96% |
| CCN1CCN(Cc2ccc(Nc3ncc(F)c(-c4cc(F)c5nc6n(c5c4)[C@H](C)CCC6)n3)nc2)CC1 |  |  | human advanced solid tumours | 300 mg, phase Ia monotherapy RECIST 1.1 |  | disease control rate | 66.7% |
| COc1cc2c(c(O)c1OC)C(=O)c1c(cc(C)c(O)c1OC)C2=O | HK-2 co-cultured with HepaRG | MTT |  | 266.67 µM, 48 h | reference: untreated control | cell viability | 30.4 ± 2.43% |
| CCn1cc(-c2cc(Cn3ccnc3)cc3c2CCN([C@H](c2cc(OC)ccn2)C2CC2)C3=O)c(C(F)(F)F)n1 | NCI-H1975 | cell growth, inhibitor |  | 120 h |  | EC50 | 59.5 nM |
| COc1cc2c(cc1OC)C1CC(=O)C(CC(C)C)CN1CC2 (stereo not shown) | THP-1 | pyroptotic LDH release |  | 2 µM, 40 min, together with: LPS then nigericin |  | inhibition | 7.07% |
| CC(C)n1ncc2c(C(=O)NCC3(C)CNC3)cc(C3CC3)nc21 | Enterovirus D68 | viral replication | RD, US/MO/14-18947 | 0.1 µM | reference: untreated | plaque area | 88.8% and 90.6% |
| CC(=O)O[C@@H]1C[C@H](O)[C@@]23CO[C@@H](O)[C@]1(C)[C@@H]2C[C@@H](O)[C@]1(C)[C@@H]3C(=O)[C@H](OC(C)=O)[C@@]2(C)[C@H](c3ccoc3)C[C@H]3O[C@]321 | THP-1 | pyroptotic LDH release |  | 2 µM, 40 min, together with: LPS then nigericin |  | inhibition | 3.46% |
| Cn1cc(-c2ccc(-c3cncc(Cl)c3N3CCC4(CCNC4=O)CC3)cc2)cn1 | COLO 205 | gene expression, microarray, measured: BACE1 mRNA |  | concentration not given, 6 h | reference: untreated cells | log2 fold change | 3.88 |
| O=C(O)CNC(=O)Cc1ccccc1 |  |  | ventricular cardiomyocytes, C57BL/6 mouse | dose not given, 0.072 s |  | sarcomere length | 1.72 µm |
| Cc1ccc(C=O)cc1 | THP-1 | pyroptotic LDH release |  | 2 µM, 40 min, together with: LPS then nigericin |  | inhibition | 7.15% |
| CCn1cc(-c2cc(Cn3ccoc3=N)cc3c2CCN([C@@H](C)c2cc(OC)ccn2)C3=O)c(C(F)(F)F)n1 | COR-L105 | cell growth, inhibitor |  | 120 h |  | EC50 | 36.7 nM |
| CC(C)C[C@H](NC(=O)C[C@H](O)[C@H](CC(C)C)NC(=O)[C@H](Cc1c[nH]cn1)NC(=O)CNC(=O)[C@@H](NC(=O)[C@H](C)NC(=O)[C@H](Cc1c[nH]c2ccccc12)NC(=O)[C@H](CCC(N)=O)NC(=O)[C@@H](Cc1ccccc1)NC(=O)COCCOCCNC(=O)CCC(C(=O)O)N1CCN(CC(=O)O)CCN(CC(=O)O)CCN(CC(=O)O)CC1)C(C)C)C(N)=O (stereo partly shown) [lutetium-177 labelled] |  |  | female BALB/c nu/nu mice, stomach | intravenous, 100 pmol, 4 h, together with: PA 300 µg |  | tissue uptake | 0.28 ± 0.02 %ID/g |
| OC(CCN1CCCCC1)(c1ccccc1)C1CC2C=CC1C2 (stereo not shown) |  | resting-state EEG | healthy elderly humans | oral, 2 mg, eyes open, LS mean | reference: baseline | change in EEG Alpha2-power Pz-O1 | 20.7% |

Repeated from above:
| Structure (SMILES) | target or system | test | test system | conditions | how to read | quantity | result |
| --- | --- | --- | --- | --- | --- | --- | --- |
| COc1cc2c(cc1OC)C1CC(=O)C(CC(C)C)CN1CC2 (stereo not shown) | THP-1 | pyroptotic LDH release |  | 2 µM, 40 min, together with: LPS then nigericin |  | inhibition | 7.07% |
| CCn1cc(-c2cc(Cn3ccoc3=N)cc3c2CCN([C@@H](C)c2cc(OC)ccn2)C3=O)c(C(F)(F)F)n1 | COR-L105 | cell growth, inhibitor |  | 120 h |  | EC50 | 36.7 nM |
